Published values from different studies.
Parts stem from different laboratories: compare values within a part only. Positions count from the first letter of the parent shown.

Sample 1 — technique: protein-binding microarray; molecule type: double-stranded DNA, one strand shown; medium: in vitro; tested at: 250 nM; notes: 60-bp whole probe; together with: salmon DNA 0.4 mg/ml; relative to: random background probes; direction: higher = stronger binding; shared flanks, not repeated: GCCTAGCAC … GTCTTGATTCGCTTGACGCTGCTG
Target: Interferon regulatory factor 7, full length, phosphomimetic (IRF7, Homo sapiens, UniProt Q92985, residues 1-503, S101K/S471D/S472D/S475D/S476D/S477D/S483D/S484D/S487D)
Sequence of UniProt Q92985 (whole entry, unmodified, looked up): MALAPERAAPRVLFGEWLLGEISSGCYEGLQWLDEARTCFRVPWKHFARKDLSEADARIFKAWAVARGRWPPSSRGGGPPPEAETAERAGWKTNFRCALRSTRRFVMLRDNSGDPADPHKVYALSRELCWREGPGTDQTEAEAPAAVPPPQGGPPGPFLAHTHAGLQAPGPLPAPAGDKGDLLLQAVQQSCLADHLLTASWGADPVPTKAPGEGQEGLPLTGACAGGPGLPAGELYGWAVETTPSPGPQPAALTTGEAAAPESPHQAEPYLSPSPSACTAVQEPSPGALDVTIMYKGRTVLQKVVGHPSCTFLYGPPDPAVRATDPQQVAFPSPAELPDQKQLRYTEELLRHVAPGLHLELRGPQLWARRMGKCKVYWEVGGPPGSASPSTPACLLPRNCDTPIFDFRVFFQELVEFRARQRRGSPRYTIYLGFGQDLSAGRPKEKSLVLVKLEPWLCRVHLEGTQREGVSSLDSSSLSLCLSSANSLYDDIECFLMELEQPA
Strand	log fluorescence [z-score]
TCAATTTTGCTTTCATTACTGTGCTAG	0.922
GACGGTATCCTTATCATGACGTGCTAG	-0.107
TTAGGCATCCTTCTCCTTTAGTGCTAG	-0.342
GACGGTCTCCTTTACCTGACGTGCTAG	0.355
AACGGTTTCGGTTTCGGGACGTGCTAG	14.1
TTAGATATCAGACTGGACTAGTGCTAG	-0.0996
TTAGGTATCGGGTTGCGGTTAGTGCTA	2.96
GACGGTATCGGGTATCGGGTCGTGCTA	0.788
TTAGGACTGGACACTGGGTCAGTGCTA	-0.663
TCAGGTCTCGCTTCATCACTGTGCTAG	4.65
TCAGATCTCAGTTTCGATTAGTGCTAG	8.3
GACGAACTGGGGTAACGAGACGTGCTA	-0.498
TTAGGATTCCTTCTCCTTTAGTGCTAG	0.572
GACGATATCAGTATCGAGACGTGCTAG	0.102
TTATGTATCGACTTTCGGTTAGTGCTA	1.95
AGCTTTCCCAACATCAGAGCGTGCTAG	3.13
CACGATTTCGGGACTGGAGACGTGCTA	0.344
GACGATTTCAGCCTCGAGACGTGCTAG	0.364
TTAGGTTCCCTTTTCCATTAGTGCTAG	4.33
TTAGAACTGGGGACAGGATTAGTGCTA	-0.622
TTAGATATCAGACTGTATTAGTGCTAG	0.0941
TTAGATCTCAATATCGATTAGTGCTAG	0.347
CCAGATTTCCCCACCATCTAGTGCTAG	1.54
TTAGGTCTCCTACTGCGTTAGTGCTAG	-0.31
TCATGTTTGAGAAATCAGACTGTGCTA	0.433

Sample 2 — technique: RNA Bind-n-Seq; molecule type: RNA; medium: in vitro; tested at: 365 nM; relative to: no-protein control; direction: higher = stronger binding
Target: RNA binding protein fox-1 homolog 2, RRM domain, GST-SBP tag (RBFOX2, Homo sapiens, UniProt O43251-10, residues 100-194)
Notes: natural RNA segment, single round, ends assumed
Construct (chain): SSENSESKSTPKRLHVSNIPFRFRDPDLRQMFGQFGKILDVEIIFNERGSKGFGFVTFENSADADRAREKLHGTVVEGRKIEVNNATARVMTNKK
Strand	RBNS enrichment (R)
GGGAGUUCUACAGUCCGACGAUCCAAAAAGAGGCAGAUGAUAGACACUGGGGUAGGGUCAUACCACAGGGAAAUACCUUUCCUGGGCUUGUUUUCUAGCAUAUCACUGACCUGGGAUCUUUGGGUGAUCAAGGUGGAAUUCUCGGGUGCCAA	0.269
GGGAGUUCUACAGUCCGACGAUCCCACGUUGAGUGAAGCUCAUCCCAAGCAAGGAGCCCCAGUCUCCCGAGCGGGUAGGAGAGUUUCUUGCAGAACGUGUUUUUUCUUUACACACAUUAUGGCUGUAAAUACCUGGAAUUCUCGGGUGCCAA	0.353
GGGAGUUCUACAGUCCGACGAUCGUAGACCAUUGAGCGAUGAAUGCACACCUGUAGUAGCCCAGGACCAGCUGUGGUGGCUAAAGGGAAUAUGUUAAUUAAGCAAGAGGUUCUUUUCUAAAAGUGGUAUCUGUUGGAAUUCUCGGGUGCCAA	0.599
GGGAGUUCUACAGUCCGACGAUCUUACUUAUUAAGGAGAAUUGGAAAUACAUAUGCCCAUGCUUAAAUUUUAUAGCUUUAAUUUGUGUUAUUUCUUUAUUGACGGGAAGAGGUACAUCUUUUUUUCCUUACUGUGGAAUUCUCGGGUGCCAA	0.405
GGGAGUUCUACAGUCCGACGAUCAGAAGUGUUCAUUUUUGUUUUCUUCAUGUAGCUUGUAGAUCAUAAUAAGUAUUUGCUCUUAAAAUUUACUACUUAGUAGCAUGAUUAUUUUUGUUCUGUUGAUGAAGCAAUGGAAUUCUCGGGUGCCAA	0.909
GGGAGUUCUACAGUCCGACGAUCUGGUGCCGUUUGCUGGCUUCUCCACUAGGGUUUCAGGACAGACUACCUAGGAACUGCCUCAACCUCCCACCAGUUCUUCCCUGCCCCUCCCUUCUGUCUAGAUUCACUUCUGGAAUUCUCGGGUGCCAA	0.549
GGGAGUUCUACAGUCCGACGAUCUCCGAGAGACUUUCUGCUAAUGGUUCAGGAGGCGGAAGAGGAGCUCCUGGCCUCCCAGGUCACGCCAAACAGGCUAGAUCUUCCUGAGGACAGCCACCCAGGUCUGCAGCUGGAAUUCUCGGGUGCCAA	0.498
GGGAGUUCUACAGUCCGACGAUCACCCUUCCUGCUCAAGAUCGUCCUUCCAAUGGCUGUGUGUUUAAAGAUUGUGGGAGCUUCGCUGAACGUUAAUGUGUAGUAAAUGCACCUCCUUGUAUUCCCACUUUCGUUGGAAUUCUCGGGUGCCAA	0.648
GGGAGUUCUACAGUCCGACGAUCCACUUGAUUUGCUAAGGCUGGAGACAGGCACCAUUGCCAUGGGGCUGGUCCUAGUCACUGGCCGAGGAUAAGCCCGUCCCUGUCCCACAUUCUAGCCCCACUAUGCGGGGUGGAAUUCUCGGGUGCCAA	0.293

Sample 3 — target: CCNB3, cyclin fold, Cln2 fusion (human); technique: yeast growth competition, sequencing; medium: yeast; notes: weak parent motif; relative to: not given; direction: higher = stronger binding
Parent: E2F1 docking peptide (human); PPVKRRLDLETDH
Substitution	normalised enrichment score
P2Y	0.364
T11E	0.105
D8L	0.554
L7D	0.65
D8C	0.0408
H13R	0.371
K4Y	-0.0448
P1E	0.178
R6A	0.173
H13T	0.516
D8S	0.27
T11G	0.229
D8R	-0.151
P1W	0.844
R6D	-0.2
K4V	0.522
V3I	0.0355
D12Y	1.04
L7G	0.192
R6N	0.0883
P1T	0.417
L7E	-0.148
K4T	-0.359
R6E	0.424

Sample 4 — technique: protein-binding microarray; molecule type: double-stranded DNA, one strand shown; medium: in vitro; tested at: 0.8 µM; notes: whole 60-bp probe, no competitor; direction: higher = stronger binding
Target: Centromere-binding protein 1, full length, N-terminal tag (CBF1, Saccharomyces cerevisiae, UniProt P17106, residues 1-351)
Sequence of UniProt P17106 (whole entry, looked up): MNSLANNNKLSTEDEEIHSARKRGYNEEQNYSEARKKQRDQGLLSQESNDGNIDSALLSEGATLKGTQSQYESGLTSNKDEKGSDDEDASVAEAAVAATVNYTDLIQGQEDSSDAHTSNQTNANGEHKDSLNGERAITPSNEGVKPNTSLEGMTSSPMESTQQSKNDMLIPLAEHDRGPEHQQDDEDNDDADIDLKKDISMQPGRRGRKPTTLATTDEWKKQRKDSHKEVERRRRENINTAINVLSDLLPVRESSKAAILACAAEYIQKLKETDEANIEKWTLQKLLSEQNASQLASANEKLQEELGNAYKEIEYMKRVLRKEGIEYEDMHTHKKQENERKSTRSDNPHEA
Strand	fluorescence intensity
CTAACTCTGGTGAGACGCGTCACGGTAAAAAAATTCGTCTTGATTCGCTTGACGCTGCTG	909 a.u.
GAATTTGATCTTCAACACGTCACAGAACTGGTTTAGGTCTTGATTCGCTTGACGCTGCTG	540 a.u.
CTATTCACCAGGTCACATGGCATCGATGGAAATTTCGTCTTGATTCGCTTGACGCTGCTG	6890 a.u.
CTACCGCGTAGAAATCACGTCGCGCAATGTGCGTTCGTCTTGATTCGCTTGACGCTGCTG	574 a.u.
GAAGCGTAGGAAACGCATGTGGTAGCTCGTTTCTAGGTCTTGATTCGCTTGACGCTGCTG	533 a.u.
CTACTTTGAACTTCTTACGTGAGTGGCAACGTATTCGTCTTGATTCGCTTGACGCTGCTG	541 a.u.
GAAAGACGTGATTCGGGCGTGATTAATATTCCTTAGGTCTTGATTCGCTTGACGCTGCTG	746 a.u.
GAAAAATTGTAACACCACCTTGAAGTGCATTTCTAGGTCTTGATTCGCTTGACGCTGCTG	522 a.u.
GAAAAATTACGGTGTGACGTAGATCTGAATTATTAGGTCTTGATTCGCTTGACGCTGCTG	588 a.u.
CTACCCCGTTTCCTTTTAATCACGTGCGCGGGTTTCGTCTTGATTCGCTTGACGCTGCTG	17600 a.u.
CCTAACTACTATACGTGACTGTTATAGCTTCGTACAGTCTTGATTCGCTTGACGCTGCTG	758 a.u.
GAAGGAAGAAAAAGTGGTCAGGTGCAAGTATACTAGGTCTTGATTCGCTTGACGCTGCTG	2510 a.u.
TGTACGAAGCTATACGTGACCCTTATAGTAGTTAGGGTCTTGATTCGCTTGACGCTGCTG	735 a.u.
GAATTTGTGAACATGCACGTTCACTACGCTGCTTAGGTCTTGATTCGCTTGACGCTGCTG	609 a.u.
TGTACGAAGCTATTTCATGTGTGTATAGTAGTTAGGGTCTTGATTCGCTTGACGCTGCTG	540 a.u.
GAATTGTAACAATATCATGAGACCTTTTATAGATAGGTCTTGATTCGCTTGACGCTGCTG	682 a.u.
GAATGTGGGTGTGGTGTGGTGTGGGTGTGGGTGTAGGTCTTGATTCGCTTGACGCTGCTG	529 a.u.
GAAACTGTTGAAGTTGGCATCACGGGTGGATTCTAGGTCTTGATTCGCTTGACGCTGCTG	772 a.u.
CTATTACTTCCCGATCTCACATGTTGCCTTCAATTCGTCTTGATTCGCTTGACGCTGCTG	633 a.u.
TGTACGAAGCTATATGTGGCGCTTATAGTAGTTAGGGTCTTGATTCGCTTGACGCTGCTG	461 a.u.
CTATTACCAGTATACCGTCACATGCGGTGTAACTTCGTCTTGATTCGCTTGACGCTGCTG	1790 a.u.
CCTAACTACTATAAAGATGTGATATAGCTTCGTACAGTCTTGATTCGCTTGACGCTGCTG	550 a.u.
GAAACATGCTATCGTGTCATCATTTCGTGAACTTAGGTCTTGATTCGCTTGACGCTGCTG	569 a.u.
CTATATTCCAGCCTTCCCACCACGTAGCTATTATTCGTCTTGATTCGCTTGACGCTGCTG	541 a.u.
CTAAATACTTCGTCCGTCGTGATATCATTAACTTTCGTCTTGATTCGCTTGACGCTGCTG	602 a.u.
